Results from different studies.
Protocols differ between the studies behind these lines.
HLA class I histocompatibility antigen, B alpha chain allele B*08:01: HLA class I histocompatibility antigen, B alpha chain, allele B*08:01 (Homo sapiens, UniProt P01889)
HLA class I histocompatibility antigen, B alpha chain allele B*27:05: HLA class I histocompatibility antigen, B alpha chain, allele B*27:05 (Homo sapiens, UniProt P01889)

| Compound | target | assay | conditions | IC50 [µM] |
| --- | --- | --- | --- | --- |
| CC[C@H](C)[C@H](NC(=O)[C@H](CCC(N)=O)NC(=O)[C@@H]1CCCN1C(=O)[C@H](Cc1ccc(O)cc1)NC(=O)[C@@H]1CCCN1C(=O)[C@@H](N)CC(C)C)C(=O)N[C@@H](CC(C)C)C(=O)N[C@@H](CC(C)C)C(=O)N[C@@H](CC(C)C)C(=O)O | HLA class I histocompatibility antigen, B alpha chain allele B*08:01 | binding, competitor | – | 12.4 |
| CC(C)[C@H](NC(=O)[C@H](C)NC(=O)[C@@H](N)Cc1ccccc1)C(=O)N[C@@H](CC(=O)O)C(=O)N[C@@H](C)C(=O)N[C@@H](C)C(=O)N[C@@H](CCCCN)C(=O)N[C@@H](C)C(=O)N[C@@H](Cc1ccc(O)cc1)C(=O)O | HLA class I histocompatibility antigen, B alpha chain (Homo sapiens, UniProt P01889) | peptide-MHC binding, radioligand competition binding | – | > 70 |
| CC[C@H](C)[C@H](NC(=O)[C@H](CCCNC(=N)N)NC(=O)CNC(=O)[C@@H](NC(=O)[C@@H]1CCCN1C(=O)[C@@H](N)CCSC)[C@@H](C)CC)C(=O)N[C@@H](C)C(=O)N[C@@H](CCC(=O)O)C(=O)N[C@@H](CS)C(=O)N[C@H](C(=O)N[C@@H](CC(C)C)C(=O)O)[C@@H](C)CC | HLA class I histocompatibility antigen, B alpha chain allele B*08:01 | binding, competitor, radioligand competition | two days, room temperature, HLA-B*08:01 | 0.489 |
| CC[C@H](C)[C@H](NC(=O)[C@H](CCCNC(=N)N)NC(=O)[C@@H](N)Cc1ccc(O)cc1)C(=O)N[C@@H](Cc1ccc(O)cc1)C(=O)N[C@@H](CC(=O)O)C(=O)N[C@H](C(=O)N1CCC[C@H]1C(=O)N1CCC[C@H]1C(=O)N[C@@H](CCCCN)C(=O)O)[C@@H](C)CC | HLA class I histocompatibility antigen, B alpha chain allele B*27:05 | peptide binding, fluorescence anisotropy | 18 h, 4 °C | 0.06 |
| CC[C@H](C)[C@H](NC(=O)[C@@H](NC(=O)[C@@H](NC(=O)[C@H](CC(N)=O)NC(=O)[C@@H](NC(=O)[C@H](C)NC(=O)[C@@H](N)CC(N)=O)[C@@H](C)O)C(C)C)C(C)C)C(=O)N[C@@H](CCCCN)C(=O)N[C@H](C(=O)O)C(C)C | HLA class I histocompatibility antigen, B alpha chain, allele B*18:01 (Homo sapiens, UniProt P01889) | peptide-MHC binding, radioligand competition binding | – | > 70 |
| CSCC[C@H](NC(=O)[C@H](CCC(=O)O)NC(=O)[C@H](CCC(=O)O)NC(=O)[C@@H](N)CCCNC(=N)N)C(=O)N[C@@H](CCC(=O)O)C(=O)N[C@H](C(=O)N[C@@H](Cc1c[nH]cn1)C(=O)N[C@@H](CCC(=O)O)C(=O)N[C@@H](CC(C)C)C(=O)O)C(C)C | HLA class I histocompatibility antigen, B alpha chain allele B*08:01 | binding, competitor, radioligand competition | two days, room temperature, HLA-B*08:01 | 1.08 |
| CC[C@H](C)[C@H](NC(=O)[C@H](CCCNC(=N)N)NC(=O)[C@H](CC(C)C)NC(=O)[C@@H](NC(=O)[C@H](CCCNC(=N)N)NC(=O)[C@@H](N)CC(C)C)[C@@H](C)CC)C(=O)N[C@@H](CCCCN)C(=O)N[C@@H](CC(C)C)C(=O)N[C@@H](CCCNC(=N)N)C(=O)O | HLA class I histocompatibility antigen, B alpha chain allele B*27:05 | peptide binding, fluorescence anisotropy | 18 h, 4 °C | 0.109 |
| CC[C@H](C)[C@H](NC(=O)[C@@H]1CCCN1C(=O)[C@H](Cc1c[nH]cn1)NC(=O)[C@H](CCCCN)NC(=O)[C@H](Cc1ccc(O)cc1)NC(=O)[C@@H](NC(=O)[C@@H](N)Cc1ccc(O)cc1)[C@@H](C)O)C(=O)N[C@@H](Cc1ccc(O)cc1)C(=O)N[C@@H](CC(C)C)C(=O)O | HLA class I histocompatibility antigen, B alpha chain, allele B*40:01 (Homo sapiens, UniProt P01889) | binding | – | 4.13 |

Repeated from above:
| Compound | target | assay | conditions | IC50 [µM] |
| --- | --- | --- | --- | --- |
| CSCC[C@H](NC(=O)[C@H](CCC(=O)O)NC(=O)[C@H](CCC(=O)O)NC(=O)[C@@H](N)CCCNC(=N)N)C(=O)N[C@@H](CCC(=O)O)C(=O)N[C@H](C(=O)N[C@@H](Cc1c[nH]cn1)C(=O)N[C@@H](CCC(=O)O)C(=O)N[C@@H](CC(C)C)C(=O)O)C(C)C | HLA class I histocompatibility antigen, B alpha chain allele B*08:01 | binding, competitor, radioligand competition | two days, room temperature, HLA-B*08:01 | 1.08 |
